# Assay results of several laboratories.
# Parts stem from different laboratories: compare values within a part only.

# Block 1 — read-out: ligand displacement; method: radioligand; tested at: 10 µM
# Target: 5-hydroxytryptamine receptor 1B (HTR1B, Homo sapiens, UniProt P28222)
# Sequence of UniProt P28222 (whole entry, looked up): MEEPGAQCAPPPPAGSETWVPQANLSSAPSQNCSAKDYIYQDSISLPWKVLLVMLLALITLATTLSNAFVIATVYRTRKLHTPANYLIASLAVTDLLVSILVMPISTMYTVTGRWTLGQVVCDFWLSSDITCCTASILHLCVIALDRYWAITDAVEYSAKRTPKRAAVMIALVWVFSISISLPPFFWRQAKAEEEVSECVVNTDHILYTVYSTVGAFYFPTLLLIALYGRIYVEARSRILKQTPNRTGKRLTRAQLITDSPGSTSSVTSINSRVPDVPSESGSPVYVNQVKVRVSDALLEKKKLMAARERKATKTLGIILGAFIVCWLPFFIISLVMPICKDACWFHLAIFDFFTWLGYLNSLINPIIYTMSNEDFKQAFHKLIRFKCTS
SMILES,inhibition [%]
Cc1c(NC(=O)c2cc(C(N)=O)nc3cc(F)ccc23)c(C(F)(F)F)nn1Cc1ccc(C(C)(C)C)cc1,-7.67
CN(C)CC#Cc1ccc(OCCCc2sc(N3CCc4cccc(C(=O)Nc5nc6ccccc6s5)c4C3)nc2C(=O)O)c(F)c1,20.2
COc1cccc(CNC(=O)c2nc3scc(COCc4ccc(C(=O)O)cc4)c3c(=O)[nH]2)c1,15.9
O=C(c1ccc(F)cc1)N1CC(COc2ccc(Br)cc2)(C(=O)O)C1,-16.9
O=c1nc(-c2ccccn2)sc2ccccc12,-1.9
FC(F)(F)c1ccc2c(c1)nc(-c1cccnc1)n2C1CC1,8.83
O=C(O)[C@H]1[C@H](Cn2nnc3ccccc3c2=O)CC[C@@H]1C(=O)c1ccc(OCCC2CCOCC2)cc1,11.5
CCS(=O)(=O)c1cc2cc(C[C@](O)(CC(C)(C)c3ccc(F)cc3C(N)=O)C(F)(F)F)[nH]c2cn1,9.55
CC(C)CC(=O)N1CCc2nc(-c3ccc(Br)cc3)nc(N(C)Cc3ccccc3)c2C1,12.9
CCC(=N\O)/C(C)=C/c1ccc(F)cc1,7.88
O=S(=O)(NC1CCC(c2cc(F)ccc2F)(S(=O)(=O)c2ccc(Cl)cc2)CC1)C(F)(F)F (stereo not shown),15.4

# Block 2 — method: competition protein-binding microarray; molecule type: double-stranded DNA, one strand shown; sample: in vitro; tested at: 2 µM; with: Pho4 competitor, 0.05 µM; reading: higher = stronger binding; all sequences stand within: … GTCTTGATTCGCTTGACGCTGCTG
# Target: Centromere-binding protein 1, full length, His-tagged (CBF1, Saccharomyces cerevisiae, UniProt P17106, residues 1-351)
# Sequence of UniProt P17106 (whole entry, looked up): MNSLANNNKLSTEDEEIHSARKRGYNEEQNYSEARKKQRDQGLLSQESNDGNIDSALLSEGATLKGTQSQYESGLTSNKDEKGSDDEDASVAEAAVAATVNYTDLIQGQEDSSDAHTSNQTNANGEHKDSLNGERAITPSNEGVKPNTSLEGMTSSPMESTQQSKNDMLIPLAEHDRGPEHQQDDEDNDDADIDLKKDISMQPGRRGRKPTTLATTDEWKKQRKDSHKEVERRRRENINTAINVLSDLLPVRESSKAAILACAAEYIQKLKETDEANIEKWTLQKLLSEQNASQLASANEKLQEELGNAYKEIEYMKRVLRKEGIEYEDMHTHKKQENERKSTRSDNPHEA
# Setting: whole 60-bp probe, lowest competitor level
Oligonucleotide,fluorescence intensity
CTAACGAAGGTTTGCTAAGTGGGTGACAAGCCAAGT,72.1 a.u.
TGACGATTGCTCTTTCCCGTGCTTTATCGAGTAACC,94.7 a.u.
CATTATGGTAATTAGCACGTGGTCGATGGGGATTGT,1880 a.u.
CTACCAATGTAGTCAAACGTGAAGCCGGGCTTGGAA,71 a.u.
CGTCCTAGTGATTGTCACATCACTTCCATGAGGAAG,88.6 a.u.
GCCACAACTGCGGCCCGCGTGAAGAAAAAACCCCAT,83.6 a.u.
CTAACGAAGGTTTGATGCGTGGGTGACAAGCCAAGT,68.4 a.u.
AAAGCGGTAATTTTTCACGTGTCTTCACATATCTAT,1300 a.u.

# Block 3 — read-out: enzyme activity; action: inhibitor; tested at: 0.5 µM; relative to: control
# Target: Proto-oncogene tyrosine-protein kinase ROS (ROS1, Homo sapiens, UniProt P08922)
# Sequence of UniProt P08922 (whole entry, looked up): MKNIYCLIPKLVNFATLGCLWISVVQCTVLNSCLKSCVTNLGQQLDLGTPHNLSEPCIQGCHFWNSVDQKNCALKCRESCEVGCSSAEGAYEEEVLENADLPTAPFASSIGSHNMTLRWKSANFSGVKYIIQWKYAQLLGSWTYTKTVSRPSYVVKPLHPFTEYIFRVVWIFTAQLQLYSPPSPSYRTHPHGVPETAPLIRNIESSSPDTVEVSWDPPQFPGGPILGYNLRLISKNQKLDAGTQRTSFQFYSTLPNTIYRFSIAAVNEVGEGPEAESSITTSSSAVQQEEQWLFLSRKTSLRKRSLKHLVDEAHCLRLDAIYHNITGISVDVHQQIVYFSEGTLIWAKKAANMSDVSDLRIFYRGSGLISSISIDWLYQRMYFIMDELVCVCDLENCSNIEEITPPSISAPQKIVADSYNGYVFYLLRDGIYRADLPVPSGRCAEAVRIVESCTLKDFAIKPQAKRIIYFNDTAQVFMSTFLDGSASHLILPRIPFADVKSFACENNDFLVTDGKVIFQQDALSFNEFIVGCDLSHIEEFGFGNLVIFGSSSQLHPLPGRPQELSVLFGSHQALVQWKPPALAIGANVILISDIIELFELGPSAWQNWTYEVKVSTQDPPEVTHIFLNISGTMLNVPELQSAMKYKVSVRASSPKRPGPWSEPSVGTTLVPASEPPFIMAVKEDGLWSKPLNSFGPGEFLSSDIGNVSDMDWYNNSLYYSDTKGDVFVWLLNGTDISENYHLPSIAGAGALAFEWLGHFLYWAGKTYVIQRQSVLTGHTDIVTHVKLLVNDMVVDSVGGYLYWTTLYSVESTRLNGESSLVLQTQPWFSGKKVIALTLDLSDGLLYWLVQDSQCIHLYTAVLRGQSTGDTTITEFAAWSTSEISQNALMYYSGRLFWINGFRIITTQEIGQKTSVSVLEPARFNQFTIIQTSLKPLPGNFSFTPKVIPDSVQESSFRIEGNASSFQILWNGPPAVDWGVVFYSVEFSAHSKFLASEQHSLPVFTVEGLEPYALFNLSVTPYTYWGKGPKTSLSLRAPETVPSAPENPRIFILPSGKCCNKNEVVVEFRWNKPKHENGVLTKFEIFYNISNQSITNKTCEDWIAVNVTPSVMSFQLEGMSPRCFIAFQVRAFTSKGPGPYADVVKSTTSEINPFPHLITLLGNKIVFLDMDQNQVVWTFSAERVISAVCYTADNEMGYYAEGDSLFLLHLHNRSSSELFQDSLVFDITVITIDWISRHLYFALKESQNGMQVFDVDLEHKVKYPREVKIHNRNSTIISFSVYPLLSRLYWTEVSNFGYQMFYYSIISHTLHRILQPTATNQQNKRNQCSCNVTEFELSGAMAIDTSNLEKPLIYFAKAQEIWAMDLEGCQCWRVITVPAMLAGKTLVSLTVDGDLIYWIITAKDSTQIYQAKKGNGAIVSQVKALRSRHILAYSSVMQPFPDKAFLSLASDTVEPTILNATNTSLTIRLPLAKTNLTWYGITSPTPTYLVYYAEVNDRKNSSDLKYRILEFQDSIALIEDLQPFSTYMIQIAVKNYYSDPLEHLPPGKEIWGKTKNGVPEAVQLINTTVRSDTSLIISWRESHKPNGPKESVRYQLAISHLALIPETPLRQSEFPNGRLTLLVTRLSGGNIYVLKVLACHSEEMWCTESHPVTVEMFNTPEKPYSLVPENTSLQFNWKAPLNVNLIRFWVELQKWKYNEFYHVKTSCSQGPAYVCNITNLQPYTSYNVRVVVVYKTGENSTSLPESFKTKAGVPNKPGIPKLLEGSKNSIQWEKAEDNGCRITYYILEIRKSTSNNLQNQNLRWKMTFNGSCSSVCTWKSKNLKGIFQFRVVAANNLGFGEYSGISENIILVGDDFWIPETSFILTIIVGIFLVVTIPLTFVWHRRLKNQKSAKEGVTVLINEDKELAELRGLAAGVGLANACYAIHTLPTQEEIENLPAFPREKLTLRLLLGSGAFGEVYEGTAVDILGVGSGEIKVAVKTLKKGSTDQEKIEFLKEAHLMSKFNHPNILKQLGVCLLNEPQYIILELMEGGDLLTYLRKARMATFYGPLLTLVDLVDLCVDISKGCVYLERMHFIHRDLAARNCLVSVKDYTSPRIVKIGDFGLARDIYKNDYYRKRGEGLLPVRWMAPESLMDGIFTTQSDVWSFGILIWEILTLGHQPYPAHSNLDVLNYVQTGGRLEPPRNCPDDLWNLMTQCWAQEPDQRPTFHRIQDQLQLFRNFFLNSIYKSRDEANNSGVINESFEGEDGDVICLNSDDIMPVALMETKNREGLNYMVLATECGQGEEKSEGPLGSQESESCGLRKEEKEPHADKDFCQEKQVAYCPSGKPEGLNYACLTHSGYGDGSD
Compound,remaining activity
O=c1cc(N2CCOCC2)oc2c(-c3ccccc3)cccc12,98.4%
O=c1c(-c2ccc(F)cc2)c(-c2ccncc2)[nH]n1-c1ccc(Cl)cc1,97.6%
c1cc(-c2cnn3cc(-c4ccc(OCCN5CCCCC5)cc4)cnc23)ccn1,93.6%
O=C1NC(=O)c2c1c1c3ccccc3[nH]c1c1[nH]c3cc(Br)ccc3c21,74.4%
Oc1cccc(-c2nc(N3CCOCC3)c3oc4ncccc4c3n2)c1,93.1%
CCCCc1c(-c2ccc(OC)cc2)[nH]c2nccnc12,37.5%
O=C1NC(=O)/C(=C/c2ccc3c(c2)OC(F)(F)O3)S1,88.5%
CN1CCN(c2ccc3nc(-c4c(N)c5c(F)cccc5[nH]c4=O)[nH]c3c2)CC1,95.5%
O=C1c2ccccc2-c2nc3nnnn3nc21,91.1%
c1ccc2c(-c3ccncc3)c[nH]c2c1,81.6%
O=C1Nc2ccc(Br)cc2/C1=C/c1cc2c([nH]1)CCCC2,98.6%
C[C@@H](N)[C@H]1CC[C@H](C(=O)Nc2ccncc2)CC1,97.4%
O=Nc1c(-c2c(O)[nH]c3cc(Br)ccc23)[nH]c2ccccc12,82%

# Single results of other studies — method: nitrocellulose filter binding; molecule type: RNA; sample: in vitro; tested at: 100 nM; relative to: round 9 selected pool; reading: higher = stronger binding
# Target: SMN1, full length (human, UniProt Q16637, residues 1-294)
# Sequence of UniProt Q16637 (whole entry, looked up): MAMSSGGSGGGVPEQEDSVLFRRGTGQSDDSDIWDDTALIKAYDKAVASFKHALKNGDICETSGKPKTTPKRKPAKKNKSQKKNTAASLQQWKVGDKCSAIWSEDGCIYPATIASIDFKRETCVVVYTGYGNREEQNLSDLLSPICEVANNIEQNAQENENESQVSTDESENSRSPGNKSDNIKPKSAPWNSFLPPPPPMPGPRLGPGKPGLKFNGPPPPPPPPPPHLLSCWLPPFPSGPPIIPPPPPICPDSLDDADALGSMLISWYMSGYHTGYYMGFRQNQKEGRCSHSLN
# Setting: whole RNA, constant flanks, single concentration, ends assumed
Oligonucleotide,relative RNA binding
GGGCUCACCACGCACGUGAAAUGGGGUUGAGGCACCGCCUCCUCACCACGGCAAGCU,12 % of pool
GGGCUCACCACGCACGUGCGCUGGUUUUAAUUUUUGCGCGCCUCACCACGGCAAGCU,69 % of pool

# Repeated from above (block 1):
SMILES,inhibition [%]
O=c1nc(-c2ccccn2)sc2ccccc12,-1.9
FC(F)(F)c1ccc2c(c1)nc(-c1cccnc1)n2C1CC1,8.83
O=C(O)[C@H]1[C@H](Cn2nnc3ccccc3c2=O)CC[C@@H]1C(=O)c1ccc(OCCC2CCOCC2)cc1,11.5
